# Assay results from different studies.
# Protocols differ between the studies behind these lines. Values joined by “and” are separate records of one study, mostly repeats; a detail may differ. ± gives the spread as reported.
# UniProt Q9NZ01, sequence (whole entry, looked up): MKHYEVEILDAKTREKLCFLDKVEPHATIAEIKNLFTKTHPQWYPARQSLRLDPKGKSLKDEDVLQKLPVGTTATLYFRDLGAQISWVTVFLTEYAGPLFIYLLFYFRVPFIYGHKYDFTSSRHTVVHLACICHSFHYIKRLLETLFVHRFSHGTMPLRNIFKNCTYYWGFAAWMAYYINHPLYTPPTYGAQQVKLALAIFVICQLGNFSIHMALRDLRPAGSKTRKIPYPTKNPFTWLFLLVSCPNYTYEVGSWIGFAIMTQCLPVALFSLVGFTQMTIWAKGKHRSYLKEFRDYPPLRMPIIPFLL
# UniProt Q9Y4K4, sequence (whole entry, looked up): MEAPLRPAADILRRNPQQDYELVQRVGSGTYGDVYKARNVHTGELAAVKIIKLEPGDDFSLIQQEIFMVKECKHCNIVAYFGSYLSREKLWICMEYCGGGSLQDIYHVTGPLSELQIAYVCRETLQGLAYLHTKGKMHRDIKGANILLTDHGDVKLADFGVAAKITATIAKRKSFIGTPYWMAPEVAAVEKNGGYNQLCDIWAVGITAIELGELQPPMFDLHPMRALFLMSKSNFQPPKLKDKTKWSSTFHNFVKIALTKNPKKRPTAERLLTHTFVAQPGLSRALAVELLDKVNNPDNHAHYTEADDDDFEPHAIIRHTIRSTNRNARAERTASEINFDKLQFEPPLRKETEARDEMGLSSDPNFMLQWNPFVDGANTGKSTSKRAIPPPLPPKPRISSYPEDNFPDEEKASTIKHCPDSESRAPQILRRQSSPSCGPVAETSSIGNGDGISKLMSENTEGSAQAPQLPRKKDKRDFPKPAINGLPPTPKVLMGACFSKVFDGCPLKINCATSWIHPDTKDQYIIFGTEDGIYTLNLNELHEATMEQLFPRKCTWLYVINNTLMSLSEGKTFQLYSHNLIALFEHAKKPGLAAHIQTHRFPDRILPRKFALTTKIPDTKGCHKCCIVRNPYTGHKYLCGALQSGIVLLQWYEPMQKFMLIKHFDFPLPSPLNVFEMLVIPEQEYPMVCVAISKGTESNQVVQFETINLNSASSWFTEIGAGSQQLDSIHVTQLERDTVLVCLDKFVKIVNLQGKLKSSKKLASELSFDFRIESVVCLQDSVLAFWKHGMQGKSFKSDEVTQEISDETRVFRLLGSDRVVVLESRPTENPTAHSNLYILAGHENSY
SMILES,tested on,assay,system,setting,scale,measurement,result
COc1cc2oc([N+](=O)[O-])cc2c2ccccc12,Mycobacterium marinum,REMA,ATCC BAA-535,,,MIC90,0.125 µg/mL
C[C@H]1COCCN1c1nc(NCc2cccnc2C(F)(F)F)c2cccnc2n1,Brugia malayi,,"SCID mouse, peritoneal cavity","dose not given, 6 weeks post-treatment, dosing x14d",,minimum microfilaria count,0 microfilariae per mouse
CO[C@H]1C[C@@H]2CC[C@@H](C)[C@@](O)(O2)C(=O)C(=O)N2CCCC[C@H]2C(=O)O[C@H]([C@H](C)C[C@@H]2CC[C@@H](OC(=O)NCCOCCOCCOCCOCCOCCOCCOCCOCCC(=O)N3CCc4cc(Cn5nc(-c6ccc7oc(N)nc7c6)c6c(N)ncnc65)ccc4C3)[C@H](OC)C2)C[C@@H](O)[C@H](C)/C=C(\C)[C@@H](O)[C@@H](OC)C(=O)[C@H](C)C[C@H](C)/C=C/C=C/C=C/1C,,,patients with advanced solid tumours,"intravenous, 8 mg weekly, grade 3 or higher",,vomiting incidence,0%
COc1cc2c(Oc3ccc4[nH]c(C)cc4c3F)ccnc2cc1OCC1(N)CC1,,item: grade 3 hand-foot syndrome,paediatric high-risk refractory sarcoma,8 mg,,incidence of adverse event,13.3%
O=C(NNc1ccc(Cl)cc1)c1nnc(C23CC4CC(CC(C4)C2)C3)o1,Botryosphaeria dothidea,"fungal growth, inhibitor",,50 µg/mL,,inhibition,100%
CC[C@H](C)[C@@H]1NC(=O)[C@@H]2CCCN2C(=O)[C@H](CC(C)C)NC(=O)[C@H](CC(C)C)NC(=O)CNC(=O)[C@@H](NC(=O)[C@@H](NC(=O)[C@H](CC(=O)O)NC(=O)CNC(=O)[C@@H](NC(=O)[C@H](C)NC(=O)CNC(=O)[C@H](CCCCN)NC(=O)[C@H](CC(C)C)NC(=O)[C@H](CC(C)C)NC(=O)[C@H](CCCCN)NC(=O)CNC(=O)[C@@H](NC(=O)[C@@H](N)CC(C)C)C(C)C)C(C)C)C(C)C)CSSC[C@@H](C(=O)O)NC1=O,,"RNA-seq, item: Gpr171","mouse, traumatic brain injury model, frontal cortex and hippocampus",dose not given,baseline: TBI alone,log2 fold change,-2.92
N#Cc1nn(-c2c(Cl)cc(C(F)(F)F)cc2Cl)c(N)c1[S+]([O-])C(F)(F)F (stereo not shown),Drosophila melanogaster,fluorescence,,"liquid food, 40 µg/mL, first instar larvae",baseline: solvent,fluorescein ingestion,-21.3%
CNC(=O)c1cc(Cl)cc(C)c1NC(=O)c1cc(Br)nn1-c1ncccc1Cl,Plutella xylostella,larvicidal activity,Raphanus sativus open field,"25 ppm, 168 h, wettable granule formulation",,mortality,92.3%
Nc1ncnc2c1ncn2[C@@H]1O[C@@H]2COP(=O)(O)O[C@H]3[C@@H](O)[C@H](n4cnc5c(=O)[nH]cnc54)O[C@@H]3COP(=O)(O)O[C@H]2[C@H]1O,West Nile virus,"RNA sequencing Reactome analysis, item: Amplification of signal from kinetochores (R-HSA-141424)",HFF-1,"concentration not given, upregulated pathways, with: West Nile virus infection",baseline: WNV-infected without compound,fold enrichment,5.34
CN1CCN(c2cc(-c3ccncc3)c(-c3ccc4ccccc4c3)nn2)CC1,"LPAR5 (Homo sapiens, UniProt Q9H1C0)","antagonist, FLIPR",,10 µM,,inhibition,37.2%
Cn1c(=O)ccc2ccc(F)c(CCNC[C@H]3CN(c4cnc5c(n4)NC(=O)CO5)C(=O)O3)c21,Citrobacter spp.,,,,,MIC50,0.25 µg/mL
COc1ccc(N2C(=O)N(c3c(C)cccc3Cl)Cc3cnc(Nc4ccc(C5CCN(C)CC5)cc4OC)nc32)nc1,"MAP4K5 (Homo sapiens, UniProt Q9Y4K4)",kinase activity,,0.5 µM,,inhibition,75%
CC(C)CC1NC(=O)C(C(=O)NC(C(=O)NC2C(=O)N3C2SC(C)(C)C3C(=O)O)c2ccccc2)=C1O (stereo not shown),Escherichia coli,,ΔtolC JW5503-1,"200 µM, with: 30 µg/mL 2,2'-bipyridyl",,zone of inhibition,16.7 mm
CC[C@H](C)[C@H](NC(=O)[C@H](C)NC(=O)[C@H](CCCCN)NC(=O)[C@H](CC(C)C)NC(=O)[C@H](C)NC(=O)[C@@H](NC(=O)[C@H](Cc1c[nH]cn1)NC(=O)[C@H](CC(C)C)NC(=O)[C@@H](NC(=O)[C@@H](NC(=O)[C@H](CCCCN)NC(=O)[C@H](C)NC(=O)[C@H](C)NC(=O)[C@H](CO)NC(=O)[C@H](CCCCN)NC(=O)[C@H](Cc1ccccc1)NC(=O)[C@@H](NC(=O)[C@H](CCCCN)NC(=O)[C@H](CC(C)C)NC(=O)[C@H](Cc1ccccc1)NC(=O)[C@H](CO)NC(=O)[C@H](CCCCN)NC(=O)[C@H](Cc1c[nH]c2ccccc12)NC(=O)[C@H](CCCCN)NC(C)=O)[C@@H](C)O)[C@@H](C)O)C(C)C)[C@@H](C)O)C(=O)N[C@@H](CO)C(=O)N[C@@H](CO)C(N)=O,Klebsiella pneumoniae,,ATCC 1705,,,MIC geometric mean,16 µg/mL
CCCCc1ccc(CNc2nc(N(C)C)nc(N(C)C)c2/N=N/c2ccc(Cl)cc2)cc1,Plutella xylostella,leaf dipping,,6.25 mg/L,,mortality,40%
CC(C)OC(=O)[C@@H](N)Cc1ccc(OP2(=O)CO[C@@H](Cn3ccc(N)nc3=O)CO2)cc1 (stereo partly shown),human cytomegalovirus,viral replication,,,,IC50,120 nM
Cl.N=C(CC(O)c1cc2c(F)cc(F)cc2c2cc(C(F)(F)F)ccc12)Nc1ccc(Br)cc1 (stereo not shown),Plasmodium berghei,Peters suppressive test,"ANKA, infected mice","oral, 4 x 3 mg/kg, day 4",baseline: untreated control,parasitemia reduction,99.6%
CC[C@H](C)[C@H](NC(=O)[C@H](Cc1ccccc1)NC(=O)[C@H](CCC(=O)O)NC(=O)[C@H](CCCNC(=N)N)NC(=O)[C@H](C)NC(=O)[C@H](C)NC(=O)[C@H](CCC(N)=O)NC(=O)[C@H](CCC(=O)O)NC(=O)[C@H](CCC(=O)O)NC(=O)[C@H](CC(C)C)NC(=O)[C@H](Cc1ccc(O)cc1)NC(=O)[C@H](CO)NC(=O)[C@H](CO)NC(=O)[C@@H](NC(=O)[C@H](CC(=O)O)NC(=O)[C@H](CO)NC(=O)[C@@H](NC(=O)[C@H](Cc1ccccc1)NC(=O)[C@@H](NC(=O)CNC(=O)[C@H](CCC(=O)O)NC(=O)[C@H](C)NC(=O)CCc1c[nH]cn1)[C@@H](C)O)[C@@H](C)O)C(C)C)C(=O)N[C@@H](C)C(=O)N[C@@H](Cc1c[nH]c2ccccc12)C(=O)N[C@@H](CC(C)C)C(=O)N[C@H](C(=O)N[C@@H](CCCNC(=N)N)C(=O)NCC(=O)N[C@@H](CCCNC(=N)N)C(=O)N[C@@H](CCCCNC(=O)COCCOCCNC(=O)COCCOCCNC(=O)CC[C@H](NC(=O)CCCCCCCCCCCCCCCCC(=O)O)C(=O)O)C(=O)NCC(=O)NCC(=O)N[C@@H](CO)C(=O)N[C@@H](CCCCNc1c(NCCCCCN(O)C(=O)CCC(=O)NCCCCCN(O)C(=O)CCC(=O)NCCCCCN(O)C(C)=O)c(=O)c1=O)C(=O)O)C(C)C [zirconium-89 labelled],,ex vivo gamma counting,"rat, colon content","subcutaneous, 3 nmol/kg, 72 h, with: [89Zr]-labelled peptide",,tissue uptake,0.07 %ID/g
CS(=O)(=O)CCCn1c(Cn2c(=O)n(CC(F)(F)F)c3ccncc32)cc2cc(Cl)ccc21,respiratory syncytial virus,RT-qPCR,"hospitalized infants 1-24 months, nasal swab","oral, 9, 6 or 5 mg/kg daily, day 14, high dose by age cohort",baseline: placebo,LS mean difference vs placebo,-1.79 log10 copies/mL
O=C(NCCc1ncc(C(F)(F)F)cc1Cl)c1ccccc1C(F)(F)F,Botryosphaeria dothidea,"fungal growth, inhibitor",,50 µg/mL,,inhibition,64 ± 1.3%
C/C(=C\C=C\[C@]1(C)[C@@H](O)CC[C@@]2(C)[C@H]1CC[C@H]1Cc3c([nH]c4cc5c(cc34)C3=CC(C)(C)OC(C)(C)[C@H]3C5)[C@@]12C)C(=O)O,Brugia malayi,,adult male worms,"10 µM, 144 h",,motility,38 ± 11%
COc1c(CCC[P+](c2ccccc2)(c2ccccc2)c2ccccc2)cc2c(c1OC)OCO2.[I-],SK-MEL-28,SRB,,,,TGI,-4.83 log M
C[C@@H]1CC[C@H]2[C@@H](C)C(=O)O[C@@H]3O[C@@]4(C)CC[C@@H]1[C@]32OO4,Plasmodium berghei,Peters test,"ANKA, mice","oral, 4 x 30 mg/kg",,mean survival time,9 days
Cc1c2c(nn1C)CSCc1cc(n(C)n1)CSc1cc(c3ccccc3c1)OCCCc1c(C(=O)O)n(C)c3c-2c(Cl)ccc13,Staphylococcus aureus,"label-free proteomics, item: hld",SA113,concentration not given,baseline: untreated,log2 fold change,-5.24
C[C@H]1CN(c2n[nH]c3nc(N[C@H]4CC[C@H](NS(=O)(=O)CCC(F)(F)F)CC4)ncc23)CCO1,"Very-long-chain enoyl-CoA reductase (Homo sapiens, UniProt Q9NZ01)","Kinobeads competition, item: GPSN2",,"0.16 µM, unit not given",baseline: vehicle,remaining binding,0.93
CN(C)c1nc(NCc2cccc(F)c2)c(/N=N/c2ccc(Cl)cc2)c(N(C)C)n1,Plutella xylostella,leaf dipping,,"200 mg/L, 96 h",,mortality,83.3 ± 5.8%
Cl.N/C(CC(O)c1cc2c(F)cc(F)cc2c2cc(C(F)(F)F)ccc12)=N\c1ccc(F)cc1 (stereo not shown),Plasmodium berghei,Peters suppressive test,"ANKA, infected mice","oral, 4 x 3 mg/kg, day 4",baseline: untreated control,parasitemia reduction,99.9%
COc1cnc(OC)n2nc(NS(=O)(=O)c3c(OCC(F)F)cccc3C(F)(F)F)nc12,Setaria viridis,,greenhouse,"postemergence, 150 g ai/ha, 21 days",,fresh weight inhibition,77.41 ± 0.72%
CC[C@H](C)[C@H](NC(=O)[C@H](CC(C)C)NC(=O)[C@@H]1CCCN1C(=O)[C@@H](N)CC(C)C)C(=O)N[C@H](C(=O)N[C@@H](Cc1ccccc1)C(=O)N[C@@H](CC(C)C)C(=O)N[C@@H](CCCNC(=N)N)C(=O)N[C@@H](CC(N)=O)C(=O)N[C@@H](CCCNC(=N)N)C(=O)N[C@@H](CC(C)C)C(=O)N[C@@H](CCCCN)C(=O)N[C@@H](Cc1ccc(O)cc1)C(=O)O)[C@@H](C)CC,Micrococcus luteus,,NCTC 2665,,,MBC,32 µg/mL
N=C(N)NCCC[C@H](NC(=O)[C@@H](N)CCCNC(=N)N)C(=O)N[C@@H](Cc1c[nH]c2ccccc12)C(=O)N[C@@H](Cc1c[nH]c2ccccc12)C(=O)N[C@@H](Cc1ccccc1)C(=O)N[C@@H](CCC(N)=O)C(=O)N[C@@H](Cc1ccccc1)C(=O)N[C@@H](CCC(N)=O)C(=O)N[C@@H](Cc1ccccc1)C(=O)N[C@@H](CCCCN)C(N)=O,Bacillus subtilis,,,,,MBC,140 µM
COc1ccc2c(ccc3oc([N+](=O)[O-])c(C)c32)c1,Mycobacterium marinum,REMA,ATCC BAA-535,,,MIC90,0.016 µg/mL
COC(=O)N[C@H](C(=O)N1CCC[C@H]1c1ncc(-c2ccc(-c3ccc(-c4cnc([C@@H]5CCCN5C(=O)[C@@H](NC(=O)OC)C(C)C)[nH]4)cc3)cc2)[nH]1)C(C)C,Hepatitis C virus,,replicon cells,"75% effect level, with: NS5B palm site II inhibitor, ratio 1:1",,combination index,0.9
COc1cc(CCC[P+](c2ccccc2)(c2ccccc2)c2ccccc2)c(OC)c2c1OCO2.[I-],SNB-19,SRB,,,,TGI,-4.96 log M
Nc1nc(O)c2ncn(COC(CO)CO)c2n1,feline herpesvirus,"viral cytopathic effect, MTS",CRFK,,,EC50,2000 nM
C[C@@H](O)[C@@H](CO)NC(=O)[C@@H](CCCNC(=N)N)NC(=O)[C@@H]1CCCN1C(=O)[C@@H]1CSSC[C@H](NC(=O)[C@H](Cc2ccccc2)NC(=O)CN2CCN(CC(=O)O)CCN(CC(=O)O)CCN(CC(=O)O)CC2)C(=O)N[C@@H](Cc2ccc(O)cc2)C(=O)N[C@@H](Cc2ccccc2)C(=O)N[C@@H](CCC(N)=O)C(=O)N[C@@H](CC(N)=O)C(=O)N1 [gallium-68 labelled],,,"healthy Wistar rat, small intestine","intravenous, 8 MBq, 30 min",,tissue uptake,0.18 %ID/g
COc1cc(Nc2ncc(F)c(Nc3ccc4c(n3)NC(=O)C(C)(C)O4)n2)cc(OC)c1OC,GHB receptor,,,,,IC50,> 10000 nM
C[C@]1(CO)Cc2ncn(-c3ccc(C#N)c(Cl)c3)c2C(=O)O1,,,"human, plasma","10 mg single dose, median",,tmax,1 h
Cn1cc(NC(=O)c2cc(NC(=O)CN=C(N)N)cn2C)cc1C(=O)NCCC(=N)N,Bacillus subtilis,bacterial cytological profiling,ATCC 6633,,,DNA width,0.69 µm and 0.75 µm and 0.77 µm
CCCCc1c([N+](=O)[O-])oc2ccc3ccccc3c12,Mycobacterium marinum,REMA,ATCC BAA-535,,,MIC90,0.25 µg/mL
CS(=O)(=O)OCCN(CCBr)c1c(C(=O)NCCO)cc([N+](=O)[O-])cc1[N+](=O)[O-],Homo sapiens,"cell viability, resazurin or CellTiter-Glo","sample B BCP-ALL PDX cells, ex vivo",,,IC50,37600 nM

# Excerpt of the above:
SMILES,tested on,assay,system,setting,scale,measurement,result
COc1c(CCC[P+](c2ccccc2)(c2ccccc2)c2ccccc2)cc2c(c1OC)OCO2.[I-],SK-MEL-28,SRB,,,,TGI,-4.83 log M
C[C@@H]1CC[C@H]2[C@@H](C)C(=O)O[C@@H]3O[C@@]4(C)CC[C@@H]1[C@]32OO4,Plasmodium berghei,Peters test,"ANKA, mice","oral, 4 x 30 mg/kg",,mean survival time,9 days
Cc1c2c(nn1C)CSCc1cc(n(C)n1)CSc1cc(c3ccccc3c1)OCCCc1c(C(=O)O)n(C)c3c-2c(Cl)ccc13,Staphylococcus aureus,"label-free proteomics, item: hld",SA113,concentration not given,baseline: untreated,log2 fold change,-5.24
